Published values of several laboratories.
Target: Cytochrome P450 2C9 (CYP2C9, Homo sapiens, UniProt P11712)
Chain of UniProt P11712 (whole entry, looked up): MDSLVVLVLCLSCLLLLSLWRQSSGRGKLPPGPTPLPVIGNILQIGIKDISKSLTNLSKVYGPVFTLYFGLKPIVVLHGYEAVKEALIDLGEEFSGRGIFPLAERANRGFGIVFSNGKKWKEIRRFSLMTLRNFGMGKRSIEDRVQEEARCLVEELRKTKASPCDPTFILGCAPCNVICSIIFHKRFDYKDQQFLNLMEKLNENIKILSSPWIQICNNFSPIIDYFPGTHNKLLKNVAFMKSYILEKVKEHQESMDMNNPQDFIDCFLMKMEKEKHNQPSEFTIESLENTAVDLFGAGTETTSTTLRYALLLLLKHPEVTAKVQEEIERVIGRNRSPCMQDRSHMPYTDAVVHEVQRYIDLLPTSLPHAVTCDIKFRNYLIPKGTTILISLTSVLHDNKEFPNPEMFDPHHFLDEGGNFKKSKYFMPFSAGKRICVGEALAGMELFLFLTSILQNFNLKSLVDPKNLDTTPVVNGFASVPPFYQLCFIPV

`O=C(NC1CCC(F)(F)CC1)C(c1cncnc1)N(C(=O)C(F)Cl)c1ccc(OC(F)(F)F)cc1` (centres unmarked) gave an IC50 of 36.6 µM (enzyme activity, inhibitor; 10 (unit not given)).
For `C[C@H]1CN(C(=O)c2cn(-c3ccnc(N)n3)c3cc(C#CC4(O)CCCCC4)ccc23)CCN1`, the IC50 was > 50 µM (10 min).
`COc1ccc2c(c1OC)O[C@H]1c3ccc(O)cc3OC[C@@H]21` has an IC50 of 38.7 µM (enzyme activity, inhibitor; human, liver microsomes; 15 min).
The IC50 of `O=C(c1ccc(-c2cccc(C(F)(F)F)c2)cc1)N1CCN(c2ncccn2)CC1` is reported as 8 µM (enzyme activity, inhibitor).
`Cc1[nH]nc2c1N=C(c1ccccc1Cl)c1cnc(N3CCOCC3)cc1N2` has an IC50 of 4.72 µM (enzyme activity, inhibitor; human, liver microsomes).
`N=C(N)SCc1ccccc1CSC(=N)N` gave an IC50 of > 10 µM (enzyme activity, inhibitor).
`CCC1(CC)CC(=O)N(C2CCOc3ccc(C(=O)NC4CC(C)(C)Oc5ccccc54)cc32)C(=N)N1` (centres unmarked) has an IC50 of > 20 µM (enzyme activity, inhibitor).
For `OCC1OC(n2cnc3c(NCc4ccc(Br)s4)ncnc32)C(O)C1O` (centres unmarked), the IC50 was 17.9 µM (enzyme activity, inhibitor, fluorescence; pH 7.4).
With `CC(C)(C)n1ncc2c(=O)n(Cc3cccc(F)c3)c(NCc3ccc(F)cn3)nc21` the IC50 was 7.93 µM (enzyme activity, inhibitor).
`CCC1(CC)CC(=O)N(C2c3cc(C(=O)NC4c5ccccc5CC4O)ccc3OC2(C)COC)C(=N)N1` (centres unmarked) gave an IC50 of > 20 µM (enzyme activity, inhibitor).
With `C=C(NC(=O)c1csc(-c2nc3c(cc2O)-c2nc(cs2)C(=O)NC(C(C)O)C(=O)NC(=C(C)OC)c2nc(cs2)C(=O)NC2c4nc(cs4)C(=O)NC(COC(=O)c4c5c6c(cccc6n4O)COC(=O)C(OC4CC(C)(O)C(N(C)C)C(C)O4)C2OC5)c2nc-3cs2)n1)C(N)=O` (centres unmarked) the IC50 was > 50 µM (enzyme activity, inhibitor; human, liver microsomes; pH 7.4).
